Experimental data gathered from unrelated publications.
Each line is one published result; not all experiments were run side by side. Numbers after ± are the reported error.
PPARA ligand-binding domain: Peroxisome proliferator-activated receptor alpha, ligand-binding domain (PPARA, Homo sapiens, UniProt Q07869)
UniProt Q07869, sequence (whole entry, looked up): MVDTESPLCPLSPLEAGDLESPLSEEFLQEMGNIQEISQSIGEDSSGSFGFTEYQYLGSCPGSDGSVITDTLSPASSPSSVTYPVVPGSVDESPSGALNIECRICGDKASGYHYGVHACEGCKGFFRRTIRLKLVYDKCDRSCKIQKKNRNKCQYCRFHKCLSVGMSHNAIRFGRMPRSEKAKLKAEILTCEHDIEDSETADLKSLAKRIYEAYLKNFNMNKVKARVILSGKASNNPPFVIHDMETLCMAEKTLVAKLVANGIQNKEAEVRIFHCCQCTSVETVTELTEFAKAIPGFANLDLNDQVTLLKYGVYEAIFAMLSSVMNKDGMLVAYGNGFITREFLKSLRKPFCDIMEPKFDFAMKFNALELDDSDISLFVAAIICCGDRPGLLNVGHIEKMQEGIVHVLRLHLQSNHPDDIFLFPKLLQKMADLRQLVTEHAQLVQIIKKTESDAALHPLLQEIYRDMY
SIRT2: NAD-dependent protein deacetylase sirtuin-2 (SIRT2, Homo sapiens, UniProt Q8IXJ6)
UniProt Q8IXJ6, sequence (whole entry, looked up): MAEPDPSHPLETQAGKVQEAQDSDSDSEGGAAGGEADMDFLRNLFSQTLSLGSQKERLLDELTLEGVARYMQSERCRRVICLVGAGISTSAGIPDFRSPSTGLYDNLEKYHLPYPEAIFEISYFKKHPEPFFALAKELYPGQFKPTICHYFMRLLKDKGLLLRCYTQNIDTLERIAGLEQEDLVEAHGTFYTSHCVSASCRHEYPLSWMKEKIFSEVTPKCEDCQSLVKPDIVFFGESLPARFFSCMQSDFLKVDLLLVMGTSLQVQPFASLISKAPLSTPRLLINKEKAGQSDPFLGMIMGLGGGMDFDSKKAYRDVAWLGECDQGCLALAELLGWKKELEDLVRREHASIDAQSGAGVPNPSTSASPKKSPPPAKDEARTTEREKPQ
PIK3CG: Phosphatidylinositol 4,5-bisphosphate 3-kinase catalytic subunit gamma isoform (PIK3CG, Homo sapiens, UniProt P48736)
UniProt P48736, sequence (whole entry, looked up): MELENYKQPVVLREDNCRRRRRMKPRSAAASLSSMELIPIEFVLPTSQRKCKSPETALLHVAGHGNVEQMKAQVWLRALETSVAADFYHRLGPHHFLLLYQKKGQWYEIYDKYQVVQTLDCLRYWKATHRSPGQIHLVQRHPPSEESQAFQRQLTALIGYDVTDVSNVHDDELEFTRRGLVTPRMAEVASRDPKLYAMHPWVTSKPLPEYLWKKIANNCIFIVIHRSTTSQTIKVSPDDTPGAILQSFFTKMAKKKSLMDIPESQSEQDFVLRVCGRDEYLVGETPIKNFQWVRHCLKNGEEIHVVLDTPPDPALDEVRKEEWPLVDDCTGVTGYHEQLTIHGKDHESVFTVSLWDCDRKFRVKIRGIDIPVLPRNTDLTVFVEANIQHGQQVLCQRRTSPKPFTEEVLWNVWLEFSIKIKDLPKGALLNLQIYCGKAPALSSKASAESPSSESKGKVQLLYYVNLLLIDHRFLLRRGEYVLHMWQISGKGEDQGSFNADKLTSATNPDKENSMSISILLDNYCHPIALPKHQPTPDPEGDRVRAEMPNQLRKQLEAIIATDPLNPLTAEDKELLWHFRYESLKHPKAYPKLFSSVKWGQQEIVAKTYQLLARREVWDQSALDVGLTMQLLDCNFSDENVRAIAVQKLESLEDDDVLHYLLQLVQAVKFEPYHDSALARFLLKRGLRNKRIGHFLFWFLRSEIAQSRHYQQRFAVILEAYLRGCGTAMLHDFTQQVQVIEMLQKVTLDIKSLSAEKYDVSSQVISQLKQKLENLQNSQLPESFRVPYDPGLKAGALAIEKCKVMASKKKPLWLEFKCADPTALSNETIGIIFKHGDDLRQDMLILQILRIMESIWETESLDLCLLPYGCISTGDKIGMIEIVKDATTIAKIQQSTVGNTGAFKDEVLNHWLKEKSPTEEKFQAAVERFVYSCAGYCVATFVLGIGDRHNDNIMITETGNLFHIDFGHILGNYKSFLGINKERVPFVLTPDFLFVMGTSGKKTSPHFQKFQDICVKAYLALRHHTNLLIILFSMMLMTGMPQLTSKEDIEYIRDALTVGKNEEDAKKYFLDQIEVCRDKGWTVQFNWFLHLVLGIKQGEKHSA
GBA2: Beta-glucosidase (GBA2, Homo sapiens, UniProt Q9HCG7)
UniProt Q9HCG7, sequence (whole entry, looked up): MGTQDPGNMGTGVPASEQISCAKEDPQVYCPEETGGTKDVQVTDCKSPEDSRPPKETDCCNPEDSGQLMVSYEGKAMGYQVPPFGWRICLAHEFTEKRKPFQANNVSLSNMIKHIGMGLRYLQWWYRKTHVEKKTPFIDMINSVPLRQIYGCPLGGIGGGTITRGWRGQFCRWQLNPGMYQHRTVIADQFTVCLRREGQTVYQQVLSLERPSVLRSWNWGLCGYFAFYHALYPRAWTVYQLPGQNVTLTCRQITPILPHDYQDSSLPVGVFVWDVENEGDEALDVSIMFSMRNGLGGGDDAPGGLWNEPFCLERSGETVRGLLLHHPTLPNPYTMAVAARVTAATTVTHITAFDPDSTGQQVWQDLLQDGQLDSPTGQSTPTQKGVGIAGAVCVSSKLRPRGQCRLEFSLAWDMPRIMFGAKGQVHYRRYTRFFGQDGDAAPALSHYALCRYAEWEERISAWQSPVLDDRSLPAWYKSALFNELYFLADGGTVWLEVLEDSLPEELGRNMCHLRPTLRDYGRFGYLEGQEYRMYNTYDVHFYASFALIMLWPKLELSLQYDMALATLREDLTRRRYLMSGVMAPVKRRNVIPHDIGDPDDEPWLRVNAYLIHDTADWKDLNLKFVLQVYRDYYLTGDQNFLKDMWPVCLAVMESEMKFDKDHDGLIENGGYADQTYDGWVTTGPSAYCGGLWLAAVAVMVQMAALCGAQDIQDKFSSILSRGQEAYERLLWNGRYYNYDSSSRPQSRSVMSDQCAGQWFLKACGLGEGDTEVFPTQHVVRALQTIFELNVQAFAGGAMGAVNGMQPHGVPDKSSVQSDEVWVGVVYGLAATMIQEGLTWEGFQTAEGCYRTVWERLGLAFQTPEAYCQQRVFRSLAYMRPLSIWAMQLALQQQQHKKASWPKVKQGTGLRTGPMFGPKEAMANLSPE
Chymotrypsinogen A: Chymotrypsinogen A (Bos taurus, UniProt P00766)
Sensor histidine kinase AirS: Sensor histidine kinase AirS (Staphylococcus aureus, UniProt Q2FX96)
UniProt Q99436, sequence (whole entry, looked up): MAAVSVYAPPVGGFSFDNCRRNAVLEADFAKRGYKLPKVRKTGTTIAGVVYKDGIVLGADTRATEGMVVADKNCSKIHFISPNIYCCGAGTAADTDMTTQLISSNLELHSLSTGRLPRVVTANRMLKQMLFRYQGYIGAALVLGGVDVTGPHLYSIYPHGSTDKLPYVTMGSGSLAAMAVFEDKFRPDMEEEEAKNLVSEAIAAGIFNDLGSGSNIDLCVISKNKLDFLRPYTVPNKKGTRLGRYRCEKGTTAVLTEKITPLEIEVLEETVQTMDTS
UniProt Q02750, sequence (whole entry, looked up): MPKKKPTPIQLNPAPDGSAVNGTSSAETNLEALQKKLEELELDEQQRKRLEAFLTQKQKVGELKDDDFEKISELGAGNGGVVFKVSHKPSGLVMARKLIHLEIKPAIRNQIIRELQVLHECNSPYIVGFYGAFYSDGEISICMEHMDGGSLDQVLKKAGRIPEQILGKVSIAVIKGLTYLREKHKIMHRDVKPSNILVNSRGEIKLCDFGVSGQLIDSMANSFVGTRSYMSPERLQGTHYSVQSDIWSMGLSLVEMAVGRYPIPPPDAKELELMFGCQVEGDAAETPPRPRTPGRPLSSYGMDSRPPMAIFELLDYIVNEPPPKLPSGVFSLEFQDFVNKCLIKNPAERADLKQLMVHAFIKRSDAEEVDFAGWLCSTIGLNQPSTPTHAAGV
UniProt P22760, sequence (whole entry, looked up): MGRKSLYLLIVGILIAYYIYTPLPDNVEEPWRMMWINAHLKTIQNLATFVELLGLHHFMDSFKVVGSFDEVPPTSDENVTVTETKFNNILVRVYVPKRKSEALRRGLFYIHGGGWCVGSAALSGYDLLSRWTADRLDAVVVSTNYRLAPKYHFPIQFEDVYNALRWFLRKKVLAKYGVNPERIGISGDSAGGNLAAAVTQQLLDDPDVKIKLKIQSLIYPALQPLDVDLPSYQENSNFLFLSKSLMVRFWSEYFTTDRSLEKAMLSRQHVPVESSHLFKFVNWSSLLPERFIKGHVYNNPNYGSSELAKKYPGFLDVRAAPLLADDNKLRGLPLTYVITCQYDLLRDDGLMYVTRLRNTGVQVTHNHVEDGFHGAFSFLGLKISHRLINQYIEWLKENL
UniProt Q04759, sequence (whole entry, looked up): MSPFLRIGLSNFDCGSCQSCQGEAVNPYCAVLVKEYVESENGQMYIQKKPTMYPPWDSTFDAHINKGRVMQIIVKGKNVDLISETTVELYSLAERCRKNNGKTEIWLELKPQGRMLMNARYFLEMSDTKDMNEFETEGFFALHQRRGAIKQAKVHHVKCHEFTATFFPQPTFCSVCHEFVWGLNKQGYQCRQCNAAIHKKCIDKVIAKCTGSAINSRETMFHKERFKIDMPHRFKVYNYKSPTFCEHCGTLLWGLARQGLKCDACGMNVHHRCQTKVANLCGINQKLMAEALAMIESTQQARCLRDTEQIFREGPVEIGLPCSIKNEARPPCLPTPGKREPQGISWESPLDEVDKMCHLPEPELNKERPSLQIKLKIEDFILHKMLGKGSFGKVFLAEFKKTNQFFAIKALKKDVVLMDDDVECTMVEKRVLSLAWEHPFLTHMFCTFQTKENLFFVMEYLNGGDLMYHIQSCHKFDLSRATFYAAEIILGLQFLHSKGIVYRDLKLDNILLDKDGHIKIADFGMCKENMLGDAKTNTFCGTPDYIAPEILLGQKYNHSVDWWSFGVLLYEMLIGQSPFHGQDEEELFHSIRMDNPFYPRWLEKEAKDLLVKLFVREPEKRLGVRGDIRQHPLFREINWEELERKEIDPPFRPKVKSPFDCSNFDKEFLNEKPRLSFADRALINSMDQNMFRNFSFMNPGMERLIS
UniProt P10997, sequence (whole entry, looked up): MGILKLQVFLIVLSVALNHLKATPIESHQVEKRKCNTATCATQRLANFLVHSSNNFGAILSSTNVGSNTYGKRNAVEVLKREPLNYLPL
UniProt P49720, sequence (whole entry, looked up): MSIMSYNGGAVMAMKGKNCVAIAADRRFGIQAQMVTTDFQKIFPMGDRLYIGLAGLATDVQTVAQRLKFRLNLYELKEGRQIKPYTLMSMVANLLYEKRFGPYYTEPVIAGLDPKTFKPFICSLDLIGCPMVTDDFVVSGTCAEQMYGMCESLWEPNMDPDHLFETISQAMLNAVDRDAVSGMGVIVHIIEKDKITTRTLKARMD

Cc1c(Cc2ccc(OC(C)C(=O)O)cc2)c2ccc(C(=O)N[C@@H](C)c3ccc(C4CC4)cc3)cc2n1C (stereo partly drawn)  IC50 (PPARA ligand-binding domain; reporter gene, luciferase reporter; HEK293T, Gal4-PPARα LBD): 19.8 µM
Cc1ccc2nc(C)n(/N=C/c3ccc(C(=O)O)cc3)c(=O)c2c1  IC50 (Cathepsin B (CTSB, Homo sapiens, UniProt P07858); enzyme activity, inhibitor): 75.1 µM
Cc1cc(C)nc(SCC(=O)Nc2ncc(Cc3cccc(OCc4cn(-c5ccc(Cl)cc5)nn4)c3)s2)n1  IC50 (SIRT2; inhibitor): 0.22 ± 0.04 µM
Cc1nc(N(C)c2ccc3c(c2)/C(=C/c2cn(C)c4ccccc24)C(=O)N3C)c2ccccc2n1  IC50 (PIK3CG; enzyme activity, inhibitor, ADP detection): 0.131 µM
OC[C@@H]1[C@@H](O)[C@H](O)[C@@H](O)CN1CCCCCOCc1ccc(-c2ccccc2)cc1C(F)(F)F  IC50 (GBA2; inhibitor, 4MU-β-D-glucopyranoside; HEK293T homogenates overexpressing GBA2): 0.00012 µM
CN1CCC[C@@H]1C(=O)N[C@@H](Cc1ccc(-c2ccccc2)cc1)B(O)O  IC50 (Proteasome subunit beta type-3/PSMB7 (Homo sapiens, UniProt P49720+Q99436); β2c trypsin-like activity, inhibitor; constitutive proteasome, with: Ac-KQL-AMC): > 10 µM
Cc1cccc(C2CC(=O)N2S(=O)(=O)c2cccc(Cl)c2)c1 (stereo not drawn)  IC50 (Chymotrypsinogen A; enzyme activity, inhibitor, fluorescence): 0.37 µM
O=C1Nc2ccccc2C12NC(c1ccc(F)cc1)C1(C(=O)Nc3ccccc31)N2Cc1ccc(F)cc1 (stereo not drawn)  IC50 (PIK3CG; enzyme activity, inhibitor, ADP detection): 0.0391 µM
O=C(NC1CCCCC1)C(C(F)(F)F)C(F)(F)F  IC50 (Chymotrypsinogen A; enzyme activity, inhibitor, fluorescence): > 100 µM
CNC(=S)NCCCC[C@H](NS(=O)(=O)c1ccc(C(=O)NCc2cn(CCCNc3ccc([N+](=O)[O-])c4nonc34)nn2)cc1)C(=O)N[C@@H](CCCNC(=N)N)C(=O)N[C@@H](CC1CCCCC1)C(N)=O  IC50 (SIRT2; enzyme activity, inhibitor, fluorescence): 0.13 µM
OC[C@H]1[C@@H](O)[C@H](O)[C@@H](O)CN1CCCCCOCc1ccsc1  IC50 (GBA2; inhibitor, 4MU-β-D-glucopyranoside; HEK293T homogenates overexpressing GBA2): 0.007 µM
COc1cc2c(cc1OC)-c1cc3ccc(OC)c(OC)c3c[n+]1CC2.[Cl][Fe-]([Cl])([Cl])[Cl]  IC50 (lipase; enzyme activity, inhibitor; with: p-nitrophenyl butyrate): 429 µM
CC(C)CCOc1ccccc1NC(=O)C(C(F)(F)F)C(F)(F)F  IC50 (Chymotrypsinogen A; enzyme activity, inhibitor, fluorescence): 13 µM
CN(CC(O)c1ccccc1)c1ccc(Cl)cc1NC(=O)Nc1cnc(C#N)cn1 (stereo not drawn)  IC50 (CHEK1 (Homo sapiens, UniProt O14757); enzyme activity, inhibitor): 0.423 µM
Cc1c(COc2cc(OCc3cccc(C#N)c3)c(CNC(CO)(CO)CO)cc2Cl)cccc1-c1cccc(OCCCCCC(=O)NO)c1  IC50 (HDAC2 (Homo sapiens, UniProt Q92769); enzyme activity, inhibitor): 0.108 µM
CCOc1cc(CN2CC3(CC(N4CCC(C(=O)O)CC4)=NO3)C2)cc(OCC)c1-c1ccc(F)cc1  IC50 (SSTR5 (Homo sapiens, UniProt P35346, L96A); cAMP level, antagonist, GloSensor; AD293; L96A mutant, bandwidth 2.60, with: CST17 EC80 and forskolin): 7.41 µM
Cc1c(Cc2ccc(OC(C)(C)C(=O)O)cc2)c2ccc(C(=O)N[C@@H](C)c3cccc(C(C)C)c3)cc2n1C  IC50 (PPARA ligand-binding domain; reporter gene, luciferase reporter; HEK293T, Gal4-PPARα LBD): 0.63 µM
OC[C@H]1[C@@H](O)[C@H](O)[C@@H](O)CN1CCCCCOCc1ccc(-c2ccccc2)cc1F  IC50 (GBA2; inhibitor, 4MU-β-D-glucopyranoside; HEK293T homogenates overexpressing GBA2): 0.0004 µM
O=C1C(Nc2ccc(Cl)cc2)c2ccccc2N1Cc1ccccc1 (stereo not drawn)  IC50 (PIK3CG; enzyme activity, inhibitor, ADP detection): 0.00951 µM
Cc1cc(NC2CCN(C)CC2)ccc1-c1cc2c(N3CCC[C@H](C(=O)NCc4ccc(OC(F)(F)F)cc4)C3)ncnc2[nH]1  IC50 (MAP2K1 (Homo sapiens, UniProt Q02750); enzyme activity, inhibitor, mobility shift): > 8 µM
Cc1nn(-c2cccc(N)c2)c(=O)c2cnc(Nc3ccc(N4CCNCC4)cc3)nc12  IC50 (Cyclin-dependent kinase 9, with cyclin T1 (CDK9, Homo sapiens, UniProt P50750); kinase activity, inhibitor, SelectScreen kinase profiling): 2.2 µM
O=C(Nc1cccc2c1OCC2)C(C(F)(F)F)C(F)(F)F  IC50 (Chymotrypsinogen A; enzyme activity, inhibitor, fluorescence): 20 µM
CCC(=O)N(CCC(c1ccccc1)c1ccco1)Cc1ccc(OC)c(OC)c1 (stereo not drawn)  IC50 (UGT76B1 (Arabidopsis thaliana, UniProt Q9C768); enzyme activity, inhibitor): 84.8 µM
OC[C@@H]1[C@@H](O)[C@H](O)[C@@H](O)CN1CCCCCOCC1CC1  IC50 (GBA2; inhibitor, 4MU-β-D-glucopyranoside; HEK293T homogenates overexpressing GBA2): 0.018 µM
CCN(CC)CC(=O)Nc1cccc(-n2cc(-c3ccc4ccc(-c5cn(-c6cccc(NC(=O)CN(CC)CC)c6)nn5)cc4c3)nn2)c1  IC50 (MAPK14 (Homo sapiens, UniProt Q16539); enzyme activity, inhibitor): > 10 µM
CCCCCOCCCCCN1C[C@H](O)[C@@H](O)[C@H](O)[C@H]1CO  IC50 (GBA2; inhibitor, 4MU-β-D-glucopyranoside; HEK293T homogenates overexpressing GBA2): 0.04 µM
O=C(Nc1ccc(OC(F)(F)F)cc1)N1CCC(Cc2cccc(Oc3ccc(C(F)(F)F)cn3)c2)CC1  IC50 (Arylacetamide deacetylase (Homo sapiens, UniProt P22760); enzyme activity, inhibitor): > 10 µM
Cc1c(Cc2cccc(OC(C)C(=O)O)c2)c2ccc(C(=O)NC(C)c3ccc(C(C)(C)C)cc3)cc2n1C (mixture of isomers)  IC50 (PPARA ligand-binding domain; reporter gene, luciferase reporter; HEK293T, Gal4-PPARα LBD): 3.3 µM
O=C(Nc1ccccc1OCCc1ccccc1)C(C(F)(F)F)C(F)(F)F  IC50 (Chymotrypsinogen A; enzyme activity, inhibitor, fluorescence): 24 µM
OB1c2sccc2C=NN1Cc1ccccc1  IC50 (PLAU (Homo sapiens, UniProt P00749); enzyme activity, inhibitor): > 100 µM
O=C1Nc2c(Br)cccc2/C1=C1/Nc2ccccc2C1=NO  IC50 (PRKCQ (Homo sapiens, UniProt Q04759)): > 10 µM
Cc1c(Cc2cccc(OC(C)(C)C(=O)O)c2)c2ccc(C(=O)N[C@H](C)c3ccc(C(C)(C)C)cc3)cc2n1C  IC50 (PPARA ligand-binding domain; reporter gene, luciferase reporter; HEK293T, Gal4-PPARα LBD): 13.9 µM
O=C(NCCc1ccccc1)C(C(F)(F)F)C(F)(F)F  IC50 (Chymotrypsinogen A; enzyme activity, inhibitor, fluorescence): 9.3 µM
COc1cccc(-c2ccc(COCCCCCN3C[C@H](O)[C@@H](O)[C@H](O)[C@H]3CO)cc2)c1  IC50 (GBA2; inhibitor, 4MU-β-D-glucopyranoside; HEK293T homogenates overexpressing GBA2): 0.02 µM
CC1Cc2ccccc2N1C1=C(c2ccc(F)cc2)C(=O)NC1=O (stereo not drawn)  IC50 (Sensor histidine kinase AirS; autophosphorylation, inhibitor, BODIPY-FL-ATPγS in-gel fluorescence; lower bound of confidence interval): > 130 µM
Cc1c(Cc2cccc(OC(C)C(=O)O)c2)c2ccc(C(=O)NC(C)c3ccc(C(C)C)cc3)cc2n1C (mixture of isomers)  IC50 (PPARA ligand-binding domain; reporter gene, luciferase reporter; HEK293T, Gal4-PPARα LBD): 9.32 µM
Cn1cncc1C#Cc1ccc2[nH]c3c(c2c1)-c1nc(N)ncc1CC3  IC50 (PIP4K2C (Homo sapiens, UniProt Q8TBX8); target engagement in cells, BRET): 2.4 µM
O=C(COc1ccc2ccccc2c1)NCc1ccc(OP(=O)(O)O)c(OP(=O)(O)O)c1  IC50 (Signal transducer and activator of transcription 5A, SH2 (Homo sapiens, UniProt P42229); ligand displacement, FP): 18.8 µM
OC[C@@H]1[C@@H](O)[C@H](O)[C@@H](O)CN1CCCCCOCc1ccc(-c2ccc(Br)cc2)cc1  IC50 (GBA2; inhibitor, 4MU-β-D-glucopyranoside; HEK293T homogenates overexpressing GBA2): 4e-05 µM
O=C1NC(=O)C(N2CCc3cc(Cl)ccc32)=C1c1cccc(Cl)c1  IC50 (Sensor histidine kinase AirS; autophosphorylation, inhibitor, BODIPY-FL-ATPγS in-gel fluorescence; lower bound of confidence interval): > 1000 µM
O=C(Nc1ccc(Oc2ccccc2)cc1)C(C(F)(F)F)C(F)(F)F  IC50 (Chymotrypsinogen A; enzyme activity, inhibitor, fluorescence): > 100 µM
CN(C)c1ccc(/N=N/c2ccc(C(=O)NCC(=O)OCCN)cc2)cc1  IC50 (IAPP (Homo sapiens, UniProt P10997); ThT displacement, ThT fluorescence; pH 7.4, preformed target-ThT complex, with: 5 µM ThT): 1.7 µM
Cc1c(Cc2cccc(OC(C)(C)C(=O)O)c2)c2ccc(C(=O)N[C@@H](C)c3cccc(OC(F)(F)F)c3)cc2n1C  IC50 (PPARA ligand-binding domain; reporter gene, luciferase reporter; HEK293T, Gal4-PPARα LBD): 36.7 µM
COc1c(Cl)cccc1NC(=O)C(C(F)(F)F)C(F)(F)F  IC50 (Chymotrypsinogen A; enzyme activity, inhibitor, fluorescence): > 100 µM
OC[C@H]1[C@@H](O)[C@H](O)[C@@H](O)CN1CCCCCOCc1cccc(-c2ccccc2)c1  IC50 (GBA2; inhibitor, 4MU-β-D-glucopyranoside; HEK293T homogenates overexpressing GBA2): 0.002 µM
C[C@@H]1Cc2c([nH]c3ccccc23)[C@@H](c2c(F)cc(/C=C/C(=O)O)cc2F)N1C12CC(C1)C2  IC50 (NR3C1 (Homo sapiens, UniProt P04150); GR receptor activity, agonist, cell-based): > 10 µM
Cc1c(Cc2cccc(OC(C)(C)C(=O)O)c2)c2ccc(C(=O)N[C@@H](C)c3cccc(C(C)(C)C)c3)cc2n1CC1CC1  IC50 (PPARA ligand-binding domain; reporter gene, luciferase reporter; HEK293T, Gal4-PPARα LBD): > 100 µM
O=C(Cc1nn(CCc2ccccc2)c2nccc(Cl)c12)N1CCCC1  IC50 (PREP (Homo sapiens, UniProt P48147); enzyme activity, inhibitor, fluorescence): 2.3 µM

Repeated from above:
O=C(Nc1cccc2c1OCC2)C(C(F)(F)F)C(F)(F)F  IC50 (Chymotrypsinogen A; enzyme activity, inhibitor, fluorescence): 20 µM
CCC(=O)N(CCC(c1ccccc1)c1ccco1)Cc1ccc(OC)c(OC)c1 (stereo not drawn)  IC50 (UGT76B1 (Arabidopsis thaliana, UniProt Q9C768); enzyme activity, inhibitor): 84.8 µM
OC[C@@H]1[C@@H](O)[C@H](O)[C@@H](O)CN1CCCCCOCC1CC1  IC50 (GBA2; inhibitor, 4MU-β-D-glucopyranoside; HEK293T homogenates overexpressing GBA2): 0.018 µM
CCN(CC)CC(=O)Nc1cccc(-n2cc(-c3ccc4ccc(-c5cn(-c6cccc(NC(=O)CN(CC)CC)c6)nn5)cc4c3)nn2)c1  IC50 (MAPK14 (Homo sapiens, UniProt Q16539); enzyme activity, inhibitor): > 10 µM
CCCCCOCCCCCN1C[C@H](O)[C@@H](O)[C@H](O)[C@H]1CO  IC50 (GBA2; inhibitor, 4MU-β-D-glucopyranoside; HEK293T homogenates overexpressing GBA2): 0.04 µM
O=C(Nc1ccc(OC(F)(F)F)cc1)N1CCC(Cc2cccc(Oc3ccc(C(F)(F)F)cn3)c2)CC1  IC50 (Arylacetamide deacetylase (Homo sapiens, UniProt P22760); enzyme activity, inhibitor): > 10 µM
Cc1c(Cc2cccc(OC(C)C(=O)O)c2)c2ccc(C(=O)NC(C)c3ccc(C(C)(C)C)cc3)cc2n1C (mixture of isomers)  IC50 (PPARA ligand-binding domain; reporter gene, luciferase reporter; HEK293T, Gal4-PPARα LBD): 3.3 µM
O=C(Nc1ccccc1OCCc1ccccc1)C(C(F)(F)F)C(F)(F)F  IC50 (Chymotrypsinogen A; enzyme activity, inhibitor, fluorescence): 24 µM
